Published values from different studies.
Lines come from different studies, so protocols differ. ± gives the spread as reported.
SCN5A: Sodium channel protein type 5 subunit alpha (SCN5A, Homo sapiens, UniProt Q14524)
KDM1A: Lysine-specific histone demethylase 1A (KDM1A, Homo sapiens, UniProt O60341)
CatSper channel complex: CatSper channel complex (Homo sapiens, UniProt Q7RTX7+Q86XQ3+Q8NEC5+Q96P56)
Chain of UniProt Q8NEC5 (whole entry, looked up): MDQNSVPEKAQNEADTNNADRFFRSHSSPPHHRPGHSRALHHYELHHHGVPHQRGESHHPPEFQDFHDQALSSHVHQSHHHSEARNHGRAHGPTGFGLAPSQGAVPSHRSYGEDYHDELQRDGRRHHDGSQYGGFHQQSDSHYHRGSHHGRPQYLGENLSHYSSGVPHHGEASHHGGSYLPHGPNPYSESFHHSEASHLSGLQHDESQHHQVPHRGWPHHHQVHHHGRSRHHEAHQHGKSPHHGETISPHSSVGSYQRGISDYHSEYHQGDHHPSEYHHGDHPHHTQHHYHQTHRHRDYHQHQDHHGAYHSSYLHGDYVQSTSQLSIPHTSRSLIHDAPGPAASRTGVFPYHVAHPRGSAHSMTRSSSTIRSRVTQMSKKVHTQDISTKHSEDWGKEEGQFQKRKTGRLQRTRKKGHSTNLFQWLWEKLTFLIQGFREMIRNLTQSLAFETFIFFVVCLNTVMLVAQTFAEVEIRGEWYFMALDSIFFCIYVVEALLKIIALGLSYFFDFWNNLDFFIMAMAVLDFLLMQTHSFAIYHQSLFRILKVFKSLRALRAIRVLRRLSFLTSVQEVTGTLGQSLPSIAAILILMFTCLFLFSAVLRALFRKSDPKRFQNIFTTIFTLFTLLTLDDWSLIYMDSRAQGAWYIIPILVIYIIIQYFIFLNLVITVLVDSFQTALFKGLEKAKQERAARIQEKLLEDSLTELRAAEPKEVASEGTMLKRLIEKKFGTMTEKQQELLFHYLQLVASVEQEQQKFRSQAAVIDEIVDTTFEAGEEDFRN
Chain of UniProt Q96P56 (whole entry, looked up): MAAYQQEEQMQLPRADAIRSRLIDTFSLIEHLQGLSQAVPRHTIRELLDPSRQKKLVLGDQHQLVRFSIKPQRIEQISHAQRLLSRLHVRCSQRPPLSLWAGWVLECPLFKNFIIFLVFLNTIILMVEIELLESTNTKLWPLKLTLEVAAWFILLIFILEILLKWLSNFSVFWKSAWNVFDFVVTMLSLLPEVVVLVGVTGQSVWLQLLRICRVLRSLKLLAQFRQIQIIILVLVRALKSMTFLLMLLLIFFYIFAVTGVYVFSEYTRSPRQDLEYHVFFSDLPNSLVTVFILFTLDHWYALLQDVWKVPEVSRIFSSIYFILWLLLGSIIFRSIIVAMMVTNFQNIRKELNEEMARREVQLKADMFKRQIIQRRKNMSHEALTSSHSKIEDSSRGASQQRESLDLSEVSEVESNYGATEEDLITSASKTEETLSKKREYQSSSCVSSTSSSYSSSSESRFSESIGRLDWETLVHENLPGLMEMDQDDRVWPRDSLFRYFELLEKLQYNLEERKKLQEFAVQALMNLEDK
Chain of UniProt Q7RTX7 (whole entry, looked up): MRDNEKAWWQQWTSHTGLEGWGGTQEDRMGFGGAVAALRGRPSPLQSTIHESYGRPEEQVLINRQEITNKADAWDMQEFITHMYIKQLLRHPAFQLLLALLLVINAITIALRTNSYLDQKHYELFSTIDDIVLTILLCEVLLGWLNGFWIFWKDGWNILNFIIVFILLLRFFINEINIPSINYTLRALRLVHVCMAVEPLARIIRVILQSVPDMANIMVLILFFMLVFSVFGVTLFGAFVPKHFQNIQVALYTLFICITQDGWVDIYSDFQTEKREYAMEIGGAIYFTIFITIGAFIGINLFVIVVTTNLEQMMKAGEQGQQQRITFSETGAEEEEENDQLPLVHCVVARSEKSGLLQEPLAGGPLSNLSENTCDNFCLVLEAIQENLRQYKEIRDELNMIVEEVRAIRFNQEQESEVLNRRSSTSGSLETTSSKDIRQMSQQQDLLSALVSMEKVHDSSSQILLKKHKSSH
Chain of UniProt Q86XQ3 (whole entry, looked up): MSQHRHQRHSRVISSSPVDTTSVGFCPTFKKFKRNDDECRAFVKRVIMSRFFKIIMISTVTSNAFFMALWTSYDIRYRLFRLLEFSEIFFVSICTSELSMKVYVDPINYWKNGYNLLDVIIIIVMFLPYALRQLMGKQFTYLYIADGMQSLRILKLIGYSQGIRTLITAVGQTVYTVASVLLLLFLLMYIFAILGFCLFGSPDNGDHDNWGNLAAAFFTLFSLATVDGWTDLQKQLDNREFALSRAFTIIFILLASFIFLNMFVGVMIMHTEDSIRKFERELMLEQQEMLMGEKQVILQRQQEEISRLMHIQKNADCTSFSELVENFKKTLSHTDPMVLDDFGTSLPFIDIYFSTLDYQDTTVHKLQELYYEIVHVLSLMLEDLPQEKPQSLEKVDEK
PSMB6: Proteasome subunit beta type-6 (PSMB6, Homo sapiens, UniProt P28072)
Chain of UniProt P28072 (whole entry, looked up): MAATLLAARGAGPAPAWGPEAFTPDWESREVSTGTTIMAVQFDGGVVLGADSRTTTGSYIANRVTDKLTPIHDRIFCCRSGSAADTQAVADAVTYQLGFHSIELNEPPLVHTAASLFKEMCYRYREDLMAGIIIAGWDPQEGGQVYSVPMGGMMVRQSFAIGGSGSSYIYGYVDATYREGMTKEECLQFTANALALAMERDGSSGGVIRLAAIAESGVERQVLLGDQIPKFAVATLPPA
Chain of UniProt P23739 (whole entry, looked up): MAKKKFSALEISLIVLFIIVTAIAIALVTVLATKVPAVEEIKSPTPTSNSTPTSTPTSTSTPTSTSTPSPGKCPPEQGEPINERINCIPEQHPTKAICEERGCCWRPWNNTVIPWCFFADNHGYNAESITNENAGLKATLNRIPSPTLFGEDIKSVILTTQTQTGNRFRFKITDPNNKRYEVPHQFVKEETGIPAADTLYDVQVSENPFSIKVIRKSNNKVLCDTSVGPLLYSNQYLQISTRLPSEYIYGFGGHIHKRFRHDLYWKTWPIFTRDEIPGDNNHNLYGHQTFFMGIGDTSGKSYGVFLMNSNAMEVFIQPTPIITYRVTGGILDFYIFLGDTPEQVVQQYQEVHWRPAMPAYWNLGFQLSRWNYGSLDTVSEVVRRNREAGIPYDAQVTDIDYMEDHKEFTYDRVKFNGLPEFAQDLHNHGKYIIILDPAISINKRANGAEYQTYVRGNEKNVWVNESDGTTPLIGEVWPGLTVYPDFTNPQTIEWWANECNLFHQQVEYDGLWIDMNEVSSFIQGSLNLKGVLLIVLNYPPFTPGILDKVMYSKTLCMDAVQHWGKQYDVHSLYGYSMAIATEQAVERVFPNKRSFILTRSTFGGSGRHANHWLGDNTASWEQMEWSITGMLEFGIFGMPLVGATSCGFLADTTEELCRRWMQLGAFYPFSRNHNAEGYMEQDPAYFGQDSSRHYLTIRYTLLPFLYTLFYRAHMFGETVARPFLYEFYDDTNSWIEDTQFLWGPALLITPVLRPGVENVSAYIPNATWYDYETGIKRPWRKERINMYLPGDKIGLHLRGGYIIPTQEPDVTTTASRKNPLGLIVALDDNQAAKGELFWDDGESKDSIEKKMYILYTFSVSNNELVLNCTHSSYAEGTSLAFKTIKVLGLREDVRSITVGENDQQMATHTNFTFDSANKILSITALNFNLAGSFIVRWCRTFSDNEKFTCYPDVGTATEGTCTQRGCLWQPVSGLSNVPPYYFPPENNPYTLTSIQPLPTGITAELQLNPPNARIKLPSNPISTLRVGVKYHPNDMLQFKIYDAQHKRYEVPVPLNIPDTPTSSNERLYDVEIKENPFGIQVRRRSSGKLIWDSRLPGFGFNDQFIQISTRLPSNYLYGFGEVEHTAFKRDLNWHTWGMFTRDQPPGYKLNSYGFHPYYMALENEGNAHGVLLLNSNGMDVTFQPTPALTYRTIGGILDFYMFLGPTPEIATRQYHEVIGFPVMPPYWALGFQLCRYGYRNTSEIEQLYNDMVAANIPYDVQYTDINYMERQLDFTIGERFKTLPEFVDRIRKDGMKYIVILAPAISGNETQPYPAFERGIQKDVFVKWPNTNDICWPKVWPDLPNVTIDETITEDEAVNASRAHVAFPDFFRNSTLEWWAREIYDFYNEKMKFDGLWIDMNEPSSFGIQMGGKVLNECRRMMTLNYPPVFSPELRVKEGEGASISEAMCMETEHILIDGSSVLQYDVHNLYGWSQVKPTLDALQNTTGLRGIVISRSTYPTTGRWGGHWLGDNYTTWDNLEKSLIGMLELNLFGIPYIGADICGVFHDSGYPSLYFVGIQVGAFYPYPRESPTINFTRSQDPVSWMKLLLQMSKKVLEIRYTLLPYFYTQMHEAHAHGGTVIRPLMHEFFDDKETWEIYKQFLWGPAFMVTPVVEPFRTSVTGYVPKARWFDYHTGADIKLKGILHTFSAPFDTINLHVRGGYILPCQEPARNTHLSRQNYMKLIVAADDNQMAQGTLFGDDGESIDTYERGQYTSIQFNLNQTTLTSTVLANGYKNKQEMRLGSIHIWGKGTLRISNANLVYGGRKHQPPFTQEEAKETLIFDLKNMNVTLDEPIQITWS
Chain of UniProt P41587 (whole entry, looked up): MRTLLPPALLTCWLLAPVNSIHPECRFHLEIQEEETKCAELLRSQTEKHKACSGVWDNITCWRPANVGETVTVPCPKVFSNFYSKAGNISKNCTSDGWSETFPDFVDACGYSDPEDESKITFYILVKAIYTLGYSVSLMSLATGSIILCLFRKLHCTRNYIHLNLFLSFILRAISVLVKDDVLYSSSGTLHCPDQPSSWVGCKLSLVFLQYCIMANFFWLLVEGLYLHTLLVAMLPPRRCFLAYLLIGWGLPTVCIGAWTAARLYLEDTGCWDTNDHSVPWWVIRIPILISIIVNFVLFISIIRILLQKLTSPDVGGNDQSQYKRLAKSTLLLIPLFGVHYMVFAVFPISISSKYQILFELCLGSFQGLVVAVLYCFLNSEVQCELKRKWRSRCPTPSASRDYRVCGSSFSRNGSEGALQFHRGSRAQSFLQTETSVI
Chain of UniProt P43235 (whole entry, looked up): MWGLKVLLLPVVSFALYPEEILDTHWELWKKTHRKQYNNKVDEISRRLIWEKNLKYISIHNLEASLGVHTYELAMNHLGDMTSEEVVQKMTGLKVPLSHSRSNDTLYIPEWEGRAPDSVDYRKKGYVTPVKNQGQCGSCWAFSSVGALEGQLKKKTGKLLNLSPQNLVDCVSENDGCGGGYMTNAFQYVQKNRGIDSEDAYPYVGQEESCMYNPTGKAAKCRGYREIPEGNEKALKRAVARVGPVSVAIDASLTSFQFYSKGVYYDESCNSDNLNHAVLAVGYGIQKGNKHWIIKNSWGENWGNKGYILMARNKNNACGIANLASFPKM

N#Cc1ccc(C2Sc3ccccc3NC3=C2C(=O)c2ccccc23)cc1 (racemic) — IC50 (PFF0160c (Plasmodium falciparum, UniProt Q08210); enzyme activity, inhibitor, absorbance): > 20 µM
[64Cu+2].c1ccc(CNCc2ccc(CN3CCCN4CCNCCCN(CC4)CC3)cc2)nc1 — tissue uptake (CXCR4; NOD/SCID mouse, U87 and U87-stb-CXCR4 xenografts, pancreas; iv, 120 min, ex vivo): 1.49 ± 0.05 %ID/g
N=C(N)NCCC[C@H](NC(=O)[C@H](CC(=O)O)NC(=O)[C@@H]1CSCCC(=O)NCC(=O)N[C@@H](Cc2c[nH]cn2)C(=O)N[C@H](Cc2ccccc2)C(=O)N[C@@H](CCCNC(=N)N)C(=O)N[C@@H](Cc2c[nH]c3ccccc23)C(=O)N1)C(=O)N[C@@H](Cc1ccccc1)C(=O)NCC(N)=O — IC50 (MC5R (Homo sapiens, UniProt P33032); ligand displacement, radioligand): 0.16 µM
CC(C)C(N)C(=O)N1CCN(C(=O)c2ccc(NC(=O)NC34CC5CC(C)(CC(C)(C5)C3)C4)cc2)CC1 (stereo not drawn) — IC50 (EPHX2 (Homo sapiens, UniProt P34913); enzyme activity, inhibitor): 0.00266 µM
N[C@@H](CCC(=O)N[C@@H](CS[Se]Cc1ccc(C(=O)Nc2cc(C(F)(F)F)c(Br)c(C(F)(F)F)c2)cc1)C(=O)NCC(=O)O)C(=O)O — IC50 (PTPN2 (Homo sapiens, UniProt P17706); enzyme activity, inhibitor; added: pNPP, GSH 1 mM): > 100 µM
[2H]c1c(NS(C)(=O)=O)c([2H])c2c(C(=O)c3ccc(OCCCN(CCCC)CCCC)cc3)c(CCCC)oc2c1[2H] — IC50 (SCN5A; peak sodium current, blocker, whole-cell patch clamp; HEK293FT transfected): 5.51 µM
CC(C)[C@H]1NC(=O)[C@@H]2CCCN2C(=O)[C@H](C)NC(=O)[C@H](CCC(N)=O)NC(=O)C[C@@H](CCc2ccccc2)NC(=O)[C@@H]2CCCCN2C(=O)C(=O)C(C)(C)COC(=O)[C@@H](C)NC1=O — IC50 (FKBP1A (Homo sapiens, UniProt P62942); binding, fluorescence polarization competition; crude library samples): > 100 µM
CC(C)c1ccc(-c2nc(SCc3cn(CC(=O)NC(=O)Nc4ccccn4)nn3)nc(Nc3ccc(F)cc3)c2C#N)cc1 — IC50 (KDM1A; enzyme activity, inhibitor, fluorescence): 5.62 µM
O=C(Nc1ccccc1C(F)(F)F)N1CCN(c2cccc(C(F)(F)F)c2)CC1 — IC50 (CatSper channel complex; calcium influx, inhibitor, FLIPR; human sperm; added: 3 µM progesterone): > 100 µM
CC[C@H](C)[C@H](NC(=O)CNC(=O)[C@H](CC(=O)O)NC(=O)[C@H](CO)NC(=O)C=Cc1c[nH]cn1)C(=O)N[C@@H](Cc1ccccc1)C(=O)N[C@H](C(=O)N[C@@H](CC(=O)O)C(=O)N[C@@H](CO)C(=O)N[C@@H](Cc1ccc(O)cc1)C(=O)N[C@@H](CO)C(=O)N[C@@H](CCCNC(=N)N)C(=O)N[C@@H](Cc1ccc(O)cc1)C(=O)N[C@@H](CCCNC(=N)N)C(=O)N[C@@H](CCCCN)C(=O)N[C@@H](CCC(N)=O)C(=O)N[C@@H](CCSC)C(=O)N[C@@H](C)C(=O)N[C@H](C(=O)N[C@@H](CCCCN)C(=O)N[C@@H](CCCCN)C(=O)N[C@@H](C)C(=O)N[C@@H](CC(C)C)C(=O)N[C@@H](C)C(=O)N[C@@H](C)C(=O)N[C@H](C(=O)N[C@@H](CC(C)C)C(=O)NCC(=O)N[C@@H](CCCCN)C(=O)N[C@@H](CCCNC(=N)N)C(=O)N[C@@H](Cc1ccc(O)cc1)C(=O)N[C@@H](CCCCN)C(=O)N[C@@H](CCC(N)=O)C(=O)N[C@@H](CCCNC(=N)N)C(=O)N[C@H](C(=O)N[C@@H](CCCCN)C(=O)N[C@@H](CC(N)=O)C(=O)N[C@@H](CCCCN)C(N)=O)C(C)C)C(C)C)C(C)C)[C@@H](C)O — IC50 (VIPR2 (Homo sapiens, UniProt P41587); ligand displacement, radioligand): > 1 µM
CN(C)/C=C/C(=O)c1ccc2[nH]c3ncc(-c4ccc(N5CCN(C)CC5)cc4)cc3c2c1 — IC50 (ALK (Homo sapiens, UniProt Q9UM73, L1196M); enzyme activity, inhibitor, radiometric): 0.26 µM
N#Cc1cccc(/C=C/C(=O)c2nc3cc(Cl)ccc3[nH]2)c1 — IC50 (Cathepsin K (CTSK, Homo sapiens, UniProt P43235); enzyme activity, inhibitor, fluorescence): 0.88 µM
N=C(N)NCCC[C@@H]1NC(=O)[C@H](Cc2c[nH]c3ccccc23)NC(=O)[C@H](CCCNC(=N)N)NC(=O)[C@H](Cc2c[nH]c3ccccc23)NC(=O)[C@H](CCCNC(=N)N)NC(=O)[C@H](Cc2c[nH]c3ccccc23)NC(=O)[C@H](CCCNC(=N)N)NC(=O)[C@H](Cc2c[nH]c3ccccc23)NC(=O)[C@H](CCCNC(=N)N)NC(=O)[C@H](Cc2c[nH]c3ccccc23)NC(=O)[C@H](CCCNC(=N)N)NC(=O)[C@H](Cc2c[nH]c3ccccc23)NC1=O — IC50 (PRKCA (Homo sapiens, UniProt P17252); enzyme activity, inhibitor): 6.66 µM
CCCCCCCCSc1nc(N)c2c(F)c(C#N)c(F)c(Cl)c2n1 — IC50 (CDC25B (Homo sapiens, UniProt P30305); enzyme activity, inhibitor, fluorescence): 2.7 µM
Cn1cccc1C(=O)N1CCN(c2ccc(NC(=O)C(Cl)Cl)c(N3CCCCCC3)c2)CC1 — IC50 (ALDH1A2 (Homo sapiens, UniProt O94788); enzyme activity, inhibitor, mass spectrometry): 18 µM
Nc1nc(N)c(C(=O)N=CNNCc2ccc(Cl)cc2Cl)nc1Cl — IC50 (CatSper channel complex; calcium influx, inhibitor, FLIPR; human sperm; added: 3 µM progesterone): 8.1 µM
C=C(NC(=O)C(=C)NC(=O)c1csc(C2=NC3c4csc(n4)C4NC(=O)c5csc(n5)C(C(C)(O)C(C)O)NC(=O)C5CSC(=N5)C(=CC)NC(=O)C(C(C)O)NC(=O)c5csc(n5)C3(CC2)NC(=O)C(C(C)CC)NC(=O)C(=C)NC(=O)C(C)NC(=O)C(C(C)CC)NC2C=Cc3c(C(C)O)cc(nc3C2O)C(=O)OC4C)n1)C(N)=O (stereo not drawn) — IC50 (PSMB6; caspase-like activity, inhibitor; purified 20S proteasome; 15 min preincubation, 37 °C, added: Ac-Nle-Pro-Nle-Asp-AMC substrate): 0.2 ± 0.04 µM
O=C(Nc1ccc(Cl)cc1)c1cccc(S(=O)(=O)N2CCOCC2)c1 — IC50 (Ectonucleoside triphosphate diphosphohydrolase 1 (Homo sapiens, UniProt P49961); enzyme activity, inhibitor, absorbance): 17.5 µM
CN1Cc2c(Cl)cc(Cl)cc2C(c2cccc(S(=O)(=O)NCCOCCOCCOCCNC(=O)C(O)C(O)C(=O)NCCOCCOCCOCCNS(=O)(=O)c3cccc(C4CN(C)Cc5c(Cl)cc(Cl)cc54)c3)c2)C1 (stereo not drawn) — IC50 (Sodium/hydrogen exchanger 3 (Homo sapiens, UniProt P48764); ion flux, inhibitor): 0.0794 µM
O=C(O[C@H]1Cc2c(O)cc(O)cc2O[C@@H]1c1cc(O)c(O)c(O)c1)c1cc(O)c(O)c(O)c1 — IC50 (Si (Rattus norvegicus, UniProt P23739); enzyme activity, inhibitor): 78.7 µM
CCOc1c(C(C)(C)O)sc2cnc(Nc3ccc(N4CCC(N5CC6(COC6)C5)CC4)cc3OC)nc12 — IC50 (SCN5A; sodium current, inhibitor, whole-cell patch clamp; HEK cells expressing SCN5A): > 30 µM
NCCNC(=O)c1ccc2[nH]c(C(=O)c3ccc(O)cc3)nc2c1 — IC50 (GTPase KRas (KRAS, Homo sapiens, UniProt P01116, G12D); enzyme activity, inhibitor): 776 µM
c1ccc(-c2ccc(/N=c3\oc4ccccc4cc3-c3ccccc3)cc2)cc1 — IC50 (PTGS1 (Ovis aries, UniProt P05979); enzyme activity, inhibitor): 0.0206 µM
Cc1cc([N+](=O)[O-])ccc1NC(=O)CSc1nc2ccccc2c(=O)n1-c1ccc(S(N)(=O)=O)cc1 — IC50 (DNA gyrase (Staphylococcus aureus, UniProt P0A0K8+P20831); enzyme activity, inhibitor): 30.8 µM
C=C(NC(=O)C(=C)NC(=O)c1csc(C2=NC3c4csc(n4)C4NC(=O)c5csc(n5)C(C(C)(O)C(C)O)NC(=O)C5CSC(=N5)C(=CC)NC(=O)C(C(C)O)NC(=O)c5csc(n5)C3(CC2)NC(=O)C(C)NC(=O)C(=C)NC(=O)C(=CC)NC(=O)C(C(C)CC)NC2C=Cc3c(C(C)O)cc(nc3C2O)C(=O)OC4C)n1)C(N)=O (stereo not drawn) — IC50 (PSMB6; caspase-like activity, inhibitor; purified human 20S proteasome; 37 °C, 15 min preincubation, added: Ac-Nle-Pro-Nle-Asp-AMC): 0.92 ± 0.06 µM
CN1CCC=C(c2nsnc2OCCCCCN2CCN(CCCCCOc3nsnc3C3=CCCN(C)C3)CC2)C1 — Kb (CHRM2 (Homo sapiens, UniProt P08172); inositol phosphate, antagonist): 61.7 nM
COc1ccc(Nc2nc(SCc3cn(CC(=O)NC(=O)Nc4ccccn4)nn3)nc(-c3ccc(C(C)C)cc3)c2C#N)cc1 — IC50 (KDM1A; enzyme activity, inhibitor, fluorescence): 0.611 µM
Cc1cc2c(c(O)c1O)C(=O)c1c(O)cc(O)cc1C2=O — IC50 (HTR1A (Homo sapiens, UniProt P08908); calcium signal, antagonist): 84.2 µM
C[C@@H]1CN=C2c3ccccc3N=C(NC(=O)c3cccnc3)N21 — IC50 (PIK3CB (Homo sapiens, UniProt P42338); enzyme activity, inhibitor, radiometric): > 10 µM
Cc1cccc(CN2CCC(C(=O)Nc3ccc(-c4nc(-c5ccccc5)cs4)cc3)CC2)c1 — IC50 (FAAH (Homo sapiens, UniProt O00519); enzyme activity, inhibitor, fluorescence; pH 8, with preincubation): 0.0753 µM
N=C(N)NCCC[C@@H]1NC(=O)[C@H](Cc2c[nH]c3ccccc23)NC(=O)[C@@H](CC2CCCCC2)NC(=O)[C@@H]2CCCN2C(=O)[C@@H](NC(=O)CCc2ccccc2)CCCNC1=O — MRT(0-inf) (C57BL/6J mouse, plasma spinal cord; oral, 1 mg/kg single dose): 1.06 h
CCOc1ccc(NS(=O)(=O)c2ccc(C)c(C(=O)N3CCOC(c4ccccc4)C3)c2)cc1 (stereo not drawn) — IC50 (SCN5A; ion current, inhibitor, patch clamp): 24.8 µM
Cc1ncc2c(n1)CN(C(=O)Nc1nc(-c3cccs3)ccc1N)C2 — IC50 (HDAC9 (Homo sapiens, UniProt Q9UKV0); deacetylase activity, inhibitor, recombinant enzyme): > 30 µM
O=C(NC[C@@H](Cc1ccc(F)cc1)N1CCCCC1)C1(c2ccc(Cl)cc2)CC1 — IC50 (TRPA1 (Homo sapiens, UniProt O75762); calcium signal): > 10 µM
CN1C(=O)[C@@H](Cc2ccc(O)cc2)NC(=O)CNC(=O)[C@H](Cc2ccc3ccccc3c2)NC(=O)[C@H](CCCNC(=N)N)NC(=O)[C@H]1CCCNC(=O)c1ccc(CNC(=O)CN2CCN(CC(=O)O)CCN(CC(=O)O)CCN(CC(=O)O)CC2)cc1 [gallium-68 labelled] — absorbed dose coefficient (extrapolated to adult male; C57BL/6 mice, brain): 0.00682 mGy/MBq
CCn1nc2c(c1Nc1nc(-c3ccc(-n4cnc(C)c4)c(OC)n3)cs1)CCCC2 — IC50 (Presenilin-1, in γ-secretase complex (PSEN1, Homo sapiens, UniProt P49768); Aβ40-site cleavage; added: APP substrate Sb4): 0.132 µM
C[C@]12C[C@H](c3ccc(C(=O)O)cc3)C3=C4CCC(=O)C=C4CC[C@H]3[C@@H]1CC[C@@]2(O)C(F)(F)C(F)(F)F — IC50 (PGR (Homo sapiens, UniProt P06401); reporter gene, antagonist, luciferase): 0.025 µM
Cc1cccc(-c2cccc(C)n2)n1.Cc1cccc(-c2cccc(C)n2)n1.[Cl-].[Cl-].[Ru+2].c1ccc(-c2ccnc3c2ccc2c(-c4ccccc4)ccnc23)cc1 — EC50 (DNA binding, agarose gel electrophoresis; pUC19 plasmid DNA; photoactivated 40 J/cm^2, λ>400 nm, added: pUC19 40 µg/mL): < 7.8 µM
C=CCNC(=O)[C@H](CCc1ccccc1)NC(=O)[C@H](CC(=O)NCC(C)(C)C)NC(=O)CCc1ccccc1 — IC50 (Proteasome subunit beta type-9 / Proteasome subunit beta type-10 (Homo sapiens, UniProt P28065+P40306); inhibitor): > 100 µM

Some of these lines once more:
Nc1nc(N)c(C(=O)N=CNNCc2ccc(Cl)cc2Cl)nc1Cl — IC50 (CatSper channel complex; calcium influx, inhibitor, FLIPR; human sperm; added: 3 µM progesterone): 8.1 µM
COc1ccc(Nc2nc(SCc3cn(CC(=O)NC(=O)Nc4ccccn4)nn3)nc(-c3ccc(C(C)C)cc3)c2C#N)cc1 — IC50 (KDM1A; enzyme activity, inhibitor, fluorescence): 0.611 µM
CCCCCCCCSc1nc(N)c2c(F)c(C#N)c(F)c(Cl)c2n1 — IC50 (CDC25B (Homo sapiens, UniProt P30305); enzyme activity, inhibitor, fluorescence): 2.7 µM
